# Assay results of several laboratories.
# Protocols differ between the studies behind these lines.
Compound,system,setting,Cmax
COc1ccc(F)cc1S(=O)(=O)Nc1cnc2c(c1)C(=O)NCCO2,"male C57BL/6 mouse, plasma","oral, 3 mg/kg, single dose",590 ng/mL
O=c1cc(-c2ccccc2)oc2c(Br)c(O)c(O)c(O)c12,"C57BL/6 mouse, plasma","oral, 150 mg/kg, single dose",1100 ng/mL
CCCCCCCC(=O)NC[C@H](NC(=O)[C@H](CO)NC(=O)CN)C(=O)N[C@@H](Cc1ccccc1)C(=O)N[C@@H](CC(C)C)C(=O)N[C@@H](CO)C(=O)N1CCC[C@H]1C(=O)N[C@@H](CCC(=O)O)C(=O)N[C@@H](Cc1c[nH]cn1)C(=O)N[C@@H](CCC(N)=O)C(=O)N[C@@H](CCCNC(=N)N)C(=O)N[C@H](C(=O)N[C@@H](CCC(N)=O)C(=O)N[C@H](C(=O)N[C@@H](CCCNC(=N)N)C(=O)N1CCC[C@H]1C(=O)N1CCC[C@H]1C(=O)N[C@@H](Cc1c[nH]cn1)C(=O)N[C@@H](CCCCN)C(=O)N[C@@H](C)C(=O)N1CCC[C@H]1C(=O)N[C@@H](Cc1c[nH]cn1)C(=O)N[C@H](C(=O)N[C@H](C(=O)O)C(C)C)C(C)C)C(C)C)C(C)C,"mouse, plasma","subcutaneous, 7.2 mg/kg",828 ng/mL
CCCCCCCCCCCCCCCC(=O)NCCCC[C@H](NC(=O)[C@H](CCCNC(=N)N)NC(=O)[C@H](Cc1ccc(O)cc1)NC(=O)[C@H](CC(C)C)NC(=O)[C@H](CCCNC(=N)N)NC(=O)CNS(=O)(=O)c1ccc(N)cc1)C(N)=O,"CD-1 mouse, plasma","intraperitoneal, 4 mg/kg, single dose",3460 ng/mL
CC(C)[C@H]1NC(=O)C[C@H]2/C=C/CCSSC[C@@H](NC1=O)C(=O)N[C@H](Cc1cccc3ccccc13)C(=O)NCC(=O)O2,"nude mouse, blood","intraperitoneal, 4 mg/kg",36.6 ng/mL
CCCCCCCC(=O)OC[C@H](NC(=O)[C@H](CO)NC(=O)CN)C(=O)N[C@@H](Cc1ccccc1)C(=O)N[C@@H](CC(C)C)C(=O)N[C@@H](CO)C(=O)N1CCC[C@H]1C(=O)N[C@@H](CCC(=O)O)C(=O)N[C@@H](Cc1cnc[nH]1)C(=O)N[C@@H](CCC(N)=O)C(=O)N[C@@H](CCCNC(=N)N)C(=O)N[C@H](C(=O)N[C@@H](CCC(N)=O)C(=O)N[C@@H](CCC(N)=O)C(=O)N[C@@H](CCCNC(=N)N)C(=O)N[C@@H](CCCCN)C(=O)N[C@@H](CCC(=O)O)C(=O)N[C@@H](CO)C(=O)N[C@@H](CCCCN)C(=O)N[C@@H](CCCCN)C(=O)N1CCC[C@H]1C(=O)N1CCC[C@H]1C(=O)N[C@@H](C)C(=O)N[C@@H](CCCCN)C(=O)N[C@@H](CC(C)C)C(=O)N[C@@H](CCC(N)=O)C(=O)N1CCC[C@H]1C(=O)N[C@@H](CCCNC(=N)N)C(=O)O)C(C)C,"mouse, plasma","intraperitoneal, 1.2 mg/kg",7.5 ng/mL
CN(CC(=O)N(Cc1ccc(C2CCCCC2)cc1)c1ccc(C(=O)O)cc1)S(=O)(=O)c1c(F)c(F)c(F)c(F)c1F,"mouse, plasma","intraperitoneal, 20 mg/kg",1660 ng/mL
C/C(=N\OCCCN1CCCCC1)c1ccc(C(F)(F)F)cc1,"mouse, plasma","oral, 10 mg/kg",200 ng/mL

# A few entries again:
Compound,system,setting,Cmax
CCCCCCCC(=O)NC[C@H](NC(=O)[C@H](CO)NC(=O)CN)C(=O)N[C@@H](Cc1ccccc1)C(=O)N[C@@H](CC(C)C)C(=O)N[C@@H](CO)C(=O)N1CCC[C@H]1C(=O)N[C@@H](CCC(=O)O)C(=O)N[C@@H](Cc1c[nH]cn1)C(=O)N[C@@H](CCC(N)=O)C(=O)N[C@@H](CCCNC(=N)N)C(=O)N[C@H](C(=O)N[C@@H](CCC(N)=O)C(=O)N[C@H](C(=O)N[C@@H](CCCNC(=N)N)C(=O)N1CCC[C@H]1C(=O)N1CCC[C@H]1C(=O)N[C@@H](Cc1c[nH]cn1)C(=O)N[C@@H](CCCCN)C(=O)N[C@@H](C)C(=O)N1CCC[C@H]1C(=O)N[C@@H](Cc1c[nH]cn1)C(=O)N[C@H](C(=O)N[C@H](C(=O)O)C(C)C)C(C)C)C(C)C)C(C)C,"mouse, plasma","subcutaneous, 7.2 mg/kg",828 ng/mL
